{"data": "Experimental data of several laboratories", "note": "Numbered parts are unrelated; each lists some results of a single study."}
{"data": "Sample 1", "target": "RING finger protein unkempt homolog, zinc fingers 1-6, SBP tag (UNK, Homo sapiens, UniProt Q9C0B0, residues 30-357)", "technique": "RNA Bind-n-Seq", "molecule type": "RNA", "sample": "in vitro", "concentration": "100 nM", "setting": "RNA with constant flanks, vertebrate orthologous sites, ends assumed", "reference": "input RNA pool", "direction": "higher = stronger binding", "shared flanks, not repeated": "GGGAGUUCUACAGUCCGACGAUC … CAACAGAGGAUUGAGCAUCA", "chain of UniProt Q9C0B0 (30-357, looked up)": "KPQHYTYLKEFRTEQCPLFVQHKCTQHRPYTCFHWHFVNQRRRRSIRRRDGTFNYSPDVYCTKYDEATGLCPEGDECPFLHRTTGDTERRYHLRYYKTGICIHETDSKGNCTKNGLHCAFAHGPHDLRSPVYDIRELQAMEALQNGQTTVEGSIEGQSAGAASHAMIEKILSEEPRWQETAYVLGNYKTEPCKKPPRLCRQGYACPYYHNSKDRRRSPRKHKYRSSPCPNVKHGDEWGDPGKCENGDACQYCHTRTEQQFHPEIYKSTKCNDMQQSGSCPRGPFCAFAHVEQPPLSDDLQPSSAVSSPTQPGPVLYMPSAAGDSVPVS"}
{"Oligonucleotide": "UUCCAUCUUGAGUUGGCCUCAUAUCUGUAGAAGAUGUAACAUUUUGCAACAAAUGUAUUAUAUCUAGUUAAGCUGAGUUUCAUAUUUUUUUAUUAGUCUGUAAAUAAAGAUGGGGUCUUA", "bound/input enrichment [ratio]": 0.975}
{"Oligonucleotide": "AAUUGAAUAAAAACGUUUCCACUGGGUUUUGCCUGCAAGAAAAAAAUGUACCCGAGCCCAUAGAGCUUUUUAAUAAUAGCACUAAACAAUGCCUUUUUAGAUGUAUUUUUGAUGUAUAUA", "bound/input enrichment [ratio]": 0.894}
{"Oligonucleotide": "GAGUGCUUAAGCCGCCAACAGUUAGAAGAUGCUAUUUAUUUGUGUCUGUAAGUUUGUACAUAGUAAUGCCAGCCUUGUUGCUGAAUUUUUUAUUUGGGGGGAGAUGAGUUUGAAUUUUGU", "bound/input enrichment [ratio]": 2.38}
{"Oligonucleotide": "AGCUUUGGACCUUGGAGCUGAACCAGGGAGCCAGCAAAGUAAAGCAGACGUGUAAAACUAUACCACAUGCAGCUGCACAAAAGCACCCUCACCAGCAGCUGUGUUAAACUAUUUAUAAAG", "bound/input enrichment [ratio]": 0.247}
{"Oligonucleotide": "AGAUCUACUUCAUGCCCUGGACGCCGUACCGCACGGACACCCUCAUCGAGUACUCCUCCCUGGACGACUUCCAGAACUCGCGGCAGACGGUCACCUACAAGCUGCCUCACCGCGUGGACG", "bound/input enrichment [ratio]": 0.302}
{"Oligonucleotide": "UAAAGGAGAGACUCCUGUGAUUUUUAAUACUGCUAUUUGUUCUCUUUAGAUAGUCCAGUAUGGCAUUUUCAACAGAACUGGUUUAUUGACAGUUCUCACCUAAGUCCUCAUAAAGAAUCA", "bound/input enrichment [ratio]": 0.16}
{"Oligonucleotide": "UAGUGCUUAAACCAAGAACCAUUCAAAAAUGCUAUUUAUUUGUUUCUGUAAGUUUGUACAUAAUAUCAACCUCAUUUUUUUUUCAACCUCAUAUUCUUAAAUUUUGAUUUUUAUUUUUUU", "bound/input enrichment [ratio]": 1.11}
{"Oligonucleotide": "AAUCAAUAGAAUUUCACAAUACUAAAGUUGCAGUUGAAAGGAUAUUCAAGUAUGUGUUGGUAGUUACUAAAAGAAUUAUAGCUGUUAUUGCCUUGUAUUUAUAGCCCUUGUUUCAGGUUU", "bound/input enrichment [ratio]": 0.997}
{"Oligonucleotide": "AGGGAGAAGAACUCACAAACUGAAAGGAAAACUAUUAAAGAGUUUCUAAUAGUUAAAAGCUAGGAAAGAUUAGGACUUUACAAAUGAGAAAUUAAAAAUAAAAGGAAAAGGAUAGGGAAA", "bound/input enrichment [ratio]": 0.561}
{"Oligonucleotide": "AAUGACAGUUGGAAGAAAAACGAGGUUGUGGUUAAAAAGUAGGAGCUAUUAGGAAGAAAAGUGAUAAAUGUCAAGACUCAGGUAGCAAGAGAAUAGAGAUGCAGGUCACUGAGUCUCCAG", "bound/input enrichment [ratio]": 0.446}
{"Oligonucleotide": "AUGAAACUUGGAAGGAUAGUGUAUGAGGCUGGGGUCAAAAAGAAGGUACACUCAAGAGGAGGUAUUAUUAAUAGUCAGGUGUCUAAGAGUAGAAAUGAAAGUCAUUGCAACUCAAGAAAC", "bound/input enrichment [ratio]": 0.531}
{"data": "Sample 2", "target": "Histone acetyltransferase KAT6A, winged helix 1, GST fusion (KAT6A, Homo sapiens, UniProt Q92794, residues 1-85)", "technique": "protein binding microarray", "molecule type": "double-stranded DNA, one strand shown", "sample": "in vitro", "concentration": "not given", "setting": "8-mer, flanks averaged, mean of 2 arrays, mostly near background", "reference": "not given", "direction": "higher = stronger binding", "Residues (chain)": "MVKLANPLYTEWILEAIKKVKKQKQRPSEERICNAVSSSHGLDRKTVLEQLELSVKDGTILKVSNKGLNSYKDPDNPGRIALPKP"}
{"Oligonucleotide": "AATTTGCT", "E-score": -0.167}
{"Oligonucleotide": "GTGCTGTA", "E-score": -0.136}
{"Oligonucleotide": "GCCGGCGA", "E-score": 0.403}
{"Oligonucleotide": "ATGGCCTC", "E-score": -0.286}
{"Oligonucleotide": "AGTAACCA", "E-score": -0.0646}
{"Oligonucleotide": "CGCACTAG", "E-score": 0.142}
{"Oligonucleotide": "ATTAGAAC", "E-score": -0.029}
{"Oligonucleotide": "TGATAGAA", "E-score": -0.23}
{"Oligonucleotide": "ATAGCTGA", "E-score": -0.102}
{"Oligonucleotide": "CCTAAAAG", "E-score": -0.149}
{"Oligonucleotide": "CATGCGAG", "E-score": 0.045}
{"Oligonucleotide": "AACCCACG", "E-score": -0.189}
{"Oligonucleotide": "ATTGAAAT", "E-score": -0.182}
{"Oligonucleotide": "CTCGCAGC", "E-score": -0.0794}
{"Oligonucleotide": "ATTCTGAC", "E-score": 0.0106}
{"Oligonucleotide": "TCCTTAAA", "E-score": -0.299}
{"Oligonucleotide": "CCTCCCGA", "E-score": 0.0937}
{"Oligonucleotide": "AGCAGTAT", "E-score": -0.178}
{"data": "Sample 3", "target": "RNA binding protein fox-1 homolog 2, RRM domain, GST-SBP tag (RBFOX2, Homo sapiens, UniProt O43251-10, residues 100-194)", "technique": "RNA Bind-n-Seq", "molecule type": "RNA", "sample": "in vitro", "concentration": "365 nM", "setting": "natural RNA segment, single round, ends assumed", "reference": "no-protein control", "direction": "higher = stronger binding", "shared flanks, not repeated": "GGGAGUUCUACAGUCCGACGAUC … UGGAAUUCUCGGGUGCCAA", "Residues (chain)": "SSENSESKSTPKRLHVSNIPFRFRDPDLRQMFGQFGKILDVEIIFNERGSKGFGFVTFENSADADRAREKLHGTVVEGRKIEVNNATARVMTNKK"}
{"Oligonucleotide": "CUUACUGGGUUUCCAAGCAGAGGAGUCACAUGAUUACAAUUGCCAGUAGAGUUGUUGUUUGGGGUACAAGAUGAGAAGAAAGAAAAACCUACAGCCUUUCUACAUUCUGA", "RBNS enrichment (R)": 0.543}
{"Oligonucleotide": "UGCCUUCUUCAGAAGCUUGGAAAUCGACACACAAAACAGUGCACAUUUAGUUCACUGCUAAACAAAUUAAAGCACACUUUUCAGGACUUGCUGGGUCACCUUUUCCUGAG", "RBNS enrichment (R)": 0.419}
{"Oligonucleotide": "UCUCUACAGGUGUCUUCUGGGGGGCAGAACCAAUUGGAAGGAAGAAAGGGACCCCUCUCCAGUCCUGGCUCCUUCCUACAUCCUGGGCUCCUGAAGAAGCUGUCUUCCCA", "RBNS enrichment (R)": 0.408}
{"Oligonucleotide": "UGCAAUCAAACCUAAGCUGUUGCCACAAACCACUAAUGAAACUCAGUGUUUGAGCCAAAUCUCCGCAAUUGAGAGCAGUGCAAGUGCUGAGAGGAUGUAGACUGGGCUGG", "RBNS enrichment (R)": 0.33}
{"Oligonucleotide": "AACUGACAGGCCUUCCUUCACGUGGGGUCUCAGUGGUGGCCUACCAUGACAGCUUGGUCAGUGUGCCUAGGCAGGGCACAUUGCCUGGGCAUGUGUAGAGUGAGUGCCCC", "RBNS enrichment (R)": 0.411}
{"Oligonucleotide": "GGGAGACAGAGGAAGGAAGAUGGAGAUUGGAAGUGAGCAAAUGUGAAAAAUUCCUCUUUGAACCUGGCAGAUGCAGCUAGGCUCUGCAGUGCUGUUUGGAGACUGUGAGA", "RBNS enrichment (R)": 1.4}
{"Oligonucleotide": "CAGCCUAGGAGAUGCCACACAUGCACAUGUCUGUUGCUUCUGUUGGCCUGAACCUACAACUGCCAAAGAACCCAGCAACAAACCUCCCAGCUUGGAGCUUUAGUUUUUUU", "RBNS enrichment (R)": 0.329}
{"Oligonucleotide": "UACCUCUCCAGCCUCAGCUCUCAGUUGCAGCCCUGCUGCUGCCUGCCUGGACUUGGCCCCUGCCACCUCCUGCCUCAGGUGUCCGCUAUCCACCAAAAGGGCUCCCUGAG", "RBNS enrichment (R)": 0.305}
{"Oligonucleotide": "UAUUCACAGACAAGAUUCAAGAAACCAUUUUUACGUGUGUACAUUCAAAUCUUCAUGAAUGGCAUCACUUGCUUUAGACCCAUUUUUUUUUUAUUGGUCAGAAAUAAAAU", "RBNS enrichment (R)": 0.672}
{"Oligonucleotide": "AUGUUUUUAAAAUUACCUCUUCGAGCCUGAAUACAAAGAAUAAAAGAAUAAAAGAAUUCUUUUAAUUUCAGGGAAGAUCAGAAAAGAAAGCCUAAAGCCCUUUAGCGUUG", "RBNS enrichment (R)": 0.491}
{"Oligonucleotide": "ACCACACUCUGUAAACAGACCCAUUGAAUUAAUAAGGACUGGUGAUUCAUUUGUGUAACUCACUGAAGCCAAAAUACUAUCUUUUAAGAUGUCCCACAUGGAAGACGCUA", "RBNS enrichment (R)": 0.434}
{"Oligonucleotide": "AGUCCAGGACUGGGUCUGACCUGGUGGGAGCACCUGCCAGAGGAUGCUCUUUCCCAGGACGGAUGGGCCCUAUGUCUCAGGAGUGGGGUUGGGGGACAGCCUUCAGCAGC", "RBNS enrichment (R)": 0.227}
{"data": "Sample 4", "target": "Fragile X messenger ribonucleoprotein 1, C-terminal low-complexity region (Fmr1, Mus musculus, UniProt P35922)", "technique": "RNA Bind-n-Seq", "molecule type": "RNA", "sample": "in vitro", "concentration": "200 nM", "setting": "whole 134-nt RNA, ends assumed", "with": "150 mM LiCl", "reference": "input library", "direction": "higher = stronger binding", "all molecules": "7-deaza-guanosine replaces G", "shared flanks, not repeated": "GGGAGUUCUACAGUCCGACGAUC … UGGAAUUCUCGGGUGUCAAGG"}
{"Oligonucleotide": "CACAGACAACACGCACCCACACAGACACAGAGGGAAGGGGUUGGGAUGGGGACAGGGUGCACAGCAGGGCGGGGAAAGACCCCAGCCCCU", "log2 enrichment": 2.18}
{"Oligonucleotide": "CCUCAAGUCCUGUGCUACACAUCGUAUGUACCGAAUCGGUGGAAAGGUUUGGAAAGUAUUAUGUUACGCCGUUCGGAUCUGCACUUCCAG", "log2 enrichment": -0.734}
{"Oligonucleotide": "CUCAAGUCCUGUGCUACACAUCGUAUGUACCGAAUCGGAAAGGUGGAAAAAGGAAAGUAUUAUGUUACGCCGUUCGGAUCUGCACUUCCA", "log2 enrichment": 0.00562}
{"Oligonucleotide": "CUCAAGUCCUGUGCUACACAUCGUAUGUACCGAAUCGGAAAAAAAGGAGGAGGAAAGUAUUAUGUUACGCCGUUCGGAUCUGCACUUCCA", "log2 enrichment": -0.842}
{"Oligonucleotide": "UUCUGACUCAGAAUGUGCCAAAAAGGCUUUGGAACAACUUAAUGGAUUUGAACUAGCAGGAAGACCAAUGAAAGUUGGUCAUGUUACUGA", "log2 enrichment": -3.37}
{"Oligonucleotide": "CUGUGCUACACAUCGUAUGUACCGAAUCGGCCCCCCCGGGCCCCCCCGGGCCCCCCCGGGGAAAGUAUUAUGUUACGCCGUUCGGAUCUG", "log2 enrichment": -0.805}
{"Oligonucleotide": "CAAGUCCUGUGCUACACAUCGUAUGUACCGAAUCGGGUGGGAAAAAGGGUUUGGGAAAGUAUUAUGUUACGCCGUUCGGAUCUGCACUUC", "log2 enrichment": -2.32}
{"Oligonucleotide": "AGUCCUGUGCUACACAUCGUAUGUACCGAAUCGGGAGGGAAAAAGGGAAAAAAAGGGAAAGUAUUAUGUUACGCCGUUCGGAUCUGCACU", "log2 enrichment": -0.469}
{"Oligonucleotide": "UCAAGUCCUGUGCUACACAUCGUAUGUACCGAAUCGGGCCCGGCCCGGCCCGGGGAAAGUAUUAUGUUACGCCGUUCGGAUCUGCACUUC", "log2 enrichment": -1.69}
{"Oligonucleotide": "UGGGAGGUGGAUUUUGUUUAUUUUUUUAGCUCAUUUCCAGGGGUGGGAGUUUUUUUUUAAUAUGUGUCAUGAAUAAAGUUGUUUUUGAAA", "log2 enrichment": 0.516}
{"Oligonucleotide": "CUCAAGUCCUGUGCUACACAUCGUAUGUACCGAAUCGGGUGGGAAAGGGUGGGAAAGUAUUAUGUUACGCCGUUCGGAUCUGCACUUCCA", "log2 enrichment": 0.214}
{"note": "A few entries again (sample 4):"}
{"Oligonucleotide": "CACAGACAACACGCACCCACACAGACACAGAGGGAAGGGGUUGGGAUGGGGACAGGGUGCACAGCAGGGCGGGGAAAGACCCCAGCCCCU", "log2 enrichment": 2.18}
{"Oligonucleotide": "CUCAAGUCCUGUGCUACACAUCGUAUGUACCGAAUCGGGUGGGAAAGGGUGGGAAAGUAUUAUGUUACGCCGUUCGGAUCUGCACUUCCA", "log2 enrichment": 0.214}
{"Oligonucleotide": "UGGGAGGUGGAUUUUGUUUAUUUUUUUAGCUCAUUUCCAGGGGUGGGAGUUUUUUUUUAAUAUGUGUCAUGAAUAAAGUUGUUUUUGAAA", "log2 enrichment": 0.516}
{"Oligonucleotide": "AGUCCUGUGCUACACAUCGUAUGUACCGAAUCGGGAGGGAAAAAGGGAAAAAAAGGGAAAGUAUUAUGUUACGCCGUUCGGAUCUGCACU", "log2 enrichment": -0.469}
{"Oligonucleotide": "UUCUGACUCAGAAUGUGCCAAAAAGGCUUUGGAACAACUUAAUGGAUUUGAACUAGCAGGAAGACCAAUGAAAGUUGGUCAUGUUACUGA", "log2 enrichment": -3.37}
{"Oligonucleotide": "CUCAAGUCCUGUGCUACACAUCGUAUGUACCGAAUCGGAAAGGUGGAAAAAGGAAAGUAUUAUGUUACGCCGUUCGGAUCUGCACUUCCA", "log2 enrichment": 0.00562}
